Experimental data pooled from the literature.
Numbered parts are unrelated; each lists some results of a single study. Changes are numbered by the printed parent chain.

Sample 1
Target: Interferon regulatory factor 7, full length, phosphomimetic (IRF7, Homo sapiens, UniProt Q92985, residues 1-503, S471D/S472D/S475D/S476D/S477D/S483D/S484D/S487D)
Method: protein-binding microarray
Molecule type: double-stranded DNA, one strand shown
Medium: in vitro
Concentration: 2200 nM top
Notes: 60-bp whole probe
Together with: salmon DNA 0.4 mg/ml
Reference: random background probes
Reading: higher = stronger binding
All sequences stand within: GCCTAGCAC … GTCTTGATTCGCTTGACGCTGCTG
Residues (chain): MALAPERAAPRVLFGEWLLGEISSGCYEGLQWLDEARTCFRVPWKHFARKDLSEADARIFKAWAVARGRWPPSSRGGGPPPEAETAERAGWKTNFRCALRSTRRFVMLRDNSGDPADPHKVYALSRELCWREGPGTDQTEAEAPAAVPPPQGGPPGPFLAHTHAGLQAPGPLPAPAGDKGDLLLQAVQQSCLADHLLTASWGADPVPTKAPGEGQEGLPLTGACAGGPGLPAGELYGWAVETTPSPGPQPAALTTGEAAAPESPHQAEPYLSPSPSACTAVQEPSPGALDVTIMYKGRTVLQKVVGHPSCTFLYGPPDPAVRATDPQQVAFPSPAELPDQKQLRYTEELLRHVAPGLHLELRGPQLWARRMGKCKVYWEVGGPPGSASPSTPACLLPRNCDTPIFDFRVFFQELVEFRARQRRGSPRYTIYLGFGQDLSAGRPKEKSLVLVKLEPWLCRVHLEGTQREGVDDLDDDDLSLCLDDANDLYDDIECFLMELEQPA
| Strand | fitted relative affinity [z-score] |
| --- | --- |
| GACGATCTCGGTATCGGGACGTGCTAG | 0.101 |
| ATGATGTGTCAAAAATTGCAGTGCTAG | -0.227 |
| TTACGTTTCGACTTTCGGTTAGTGCTA | 10.8 |
| GACGGTATCCTATTGCTGACGTGCTAG | 0.757 |
| TTAGGTTTCCTTCTCCTCTAGTGCTAG | 2.62 |
| GAGGATCTCAGTCTCGAGACGTGCTAG | 0.121 |
| GACGGAATGGACTTTCGGGACGTGCTA | 2.39 |
| TCATTTCTCTATTGCTTACTGTGCTAG | 2.9 |

Sample 2
Target: Prothrombin, mature alpha-thrombin (F2, Homo sapiens, UniProt P00734)
Method: aptamer microarray, sandwich
Molecule type: DNA with 2'F-ANA
Medium: in vitro
Concentration: 200 nM
Notes: whole 15-mer aptamer, many near background
Together with: Cy3 exosite-II aptamer, 400 nM
Reading: higher = stronger binding
Strand: GGTTGGTGTGGTTGG
| Modification | mean fluorescence intensity [a.u.] |
| --- | --- |
| 2'F-ANA at 1 3 6 13 14 15 | 79.4 |
| 2'F-ANA at 1 2 4 7 8 10 11 13 | 48.3 |
| 2'F-ANA at 2 5 7 8 12 13 14 | 47.2 |
| 2'F-ANA at 1 3 6 7 8 11 14 | 118 |
| 2'F-ANA at 2 3 4 6 12 13 | 598 |
| 2'F-ANA at 2 3 4 6 8 9 10 11 14 15 | 155 |
| 2'F-ANA at 1 2 3 4 6 9 10 12 13 | 66.2 |
| 2'F-ANA at 1 3 6 7 8 9 10 14 | 61.4 |

Sample 3
Target: CCNE2, cyclin fold, Cln2 fusion (human)
Method: yeast growth competition, sequencing
Medium: yeast
Notes: weak parent motif
Reference: not given
Reading: higher = stronger binding
Starting sequence: viral docking peptide; PTARRRLLHDLDT
| Change | normalised enrichment score |
| --- | --- |
| PTARRRLLHDADT [L11A] | 0.579 |
| PTARRRLFHDLDT [L8F] | 5.52 |
| PTARRRLLFDLDT [H9F] | 4.97 |
| PTARRRLLHDLDA [T13A] | 0.577 |
| PTARRRLLADLDT [H9A] | 1.44 |
| PTAARRLLHDLDT [R4A] | -0.546 |
| ATARRRLLHDLDT [P1A] | 0.518 |
| PTARARLLHDLDT [R5A] | 0.428 |

Sample 4
Target: vanadate, free oxyanion
Method: microfluidic competitive inhibition
Medium: in vitro, cell-free expressed
Concentration: not given
Notes: derived from inhibition constants, unchanged parent 676 nM
Reading: lower = stronger binding
Starting sequence: PafA, mature enzyme, eGFP fusion (Elizabethkingia meningoseptica, UniProt Q9KJX5); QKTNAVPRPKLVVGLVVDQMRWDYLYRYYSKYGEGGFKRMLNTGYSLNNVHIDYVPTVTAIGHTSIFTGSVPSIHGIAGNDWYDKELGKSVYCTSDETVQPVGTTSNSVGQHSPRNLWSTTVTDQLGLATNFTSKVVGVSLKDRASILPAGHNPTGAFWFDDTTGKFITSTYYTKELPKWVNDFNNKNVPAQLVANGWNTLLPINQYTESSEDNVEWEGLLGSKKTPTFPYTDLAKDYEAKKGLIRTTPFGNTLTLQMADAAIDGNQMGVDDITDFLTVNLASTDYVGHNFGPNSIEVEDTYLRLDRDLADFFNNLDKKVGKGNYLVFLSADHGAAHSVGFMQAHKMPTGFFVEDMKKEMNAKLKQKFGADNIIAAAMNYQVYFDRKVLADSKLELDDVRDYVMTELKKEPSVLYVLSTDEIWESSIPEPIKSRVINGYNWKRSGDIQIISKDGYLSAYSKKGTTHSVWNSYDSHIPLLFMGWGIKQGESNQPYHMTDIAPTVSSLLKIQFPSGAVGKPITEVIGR
| Change | oxyanion analog dissociation constant [nM] |
| --- | --- |
| L128G | 547 |
| A145V | 143000 |
| K236V | 788 |
| V399A | 813 |
| S223V | 702 |
| G321V | 644 |
| A362V | 690 |
| I245V | 719 |
| P519G | 607 |
| D183V | 647 |
| D96V | 3940 |
| L128V | 724 |
| M20V | 6090 |
| V6A | 631 |
| T464G | 641 |
| G165A | 602 |
| A150G | 824 |
| D397V | 720 |
| P203G | 551 |
| D498G | 383 |
| N131G | 515 |
| E429G | 674 |
| Q366G | 744 |
| K2G | 703 |
| I374G | 626 |

Mixed results
| Compound | target | assay | conditions | quantity | result |
| --- | --- | --- | --- | --- | --- |
| CNCc1ccccc1-c1csc([C@@H](C)Nc2nc(C)nc3cc(OC)c(OC)cc23)c1 | Cyclin-dependent kinase 2 homolog (CRK2, Plasmodium falciparum, UniProt P61075) | cell-free assay, competition with immobilised ligand | 1 µM | remaining binding | 76% |

A few entries again (sample 1):
| Strand | fitted relative affinity [z-score] |
| --- | --- |
| GACGATCTCGGTATCGGGACGTGCTAG | 0.101 |
| GAGGATCTCAGTCTCGAGACGTGCTAG | 0.121 |
| TTAGGTTTCCTTCTCCTCTAGTGCTAG | 2.62 |
| GACGGAATGGACTTTCGGGACGTGCTA | 2.39 |
| ATGATGTGTCAAAAATTGCAGTGCTAG | -0.227 |
| GACGGTATCCTATTGCTGACGTGCTAG | 0.757 |
